Measured values from different studies.
Every numbered part comes from another study and shows a few of its results, in no order. Changes are numbered by the printed parent chain.

Series 1
Target: ABI1, truncated, D143A, DHFR fusion (Arabidopsis thaliana)
Method: DHFR PCA, deep sequencing
Medium: yeast
Notes: methotrexate growth selection, single substitutions
Together with: (+)-ABA 710 µM
Relative to: wild-type fitted maximum
Reading: higher = stronger binding
Starting sequence: PYL1, truncated, DHFR fusion (Arabidopsis thaliana); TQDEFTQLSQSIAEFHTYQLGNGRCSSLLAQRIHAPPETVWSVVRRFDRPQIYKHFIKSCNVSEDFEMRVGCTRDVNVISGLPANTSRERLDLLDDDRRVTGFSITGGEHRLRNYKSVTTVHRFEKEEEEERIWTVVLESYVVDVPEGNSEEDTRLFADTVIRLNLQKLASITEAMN; partner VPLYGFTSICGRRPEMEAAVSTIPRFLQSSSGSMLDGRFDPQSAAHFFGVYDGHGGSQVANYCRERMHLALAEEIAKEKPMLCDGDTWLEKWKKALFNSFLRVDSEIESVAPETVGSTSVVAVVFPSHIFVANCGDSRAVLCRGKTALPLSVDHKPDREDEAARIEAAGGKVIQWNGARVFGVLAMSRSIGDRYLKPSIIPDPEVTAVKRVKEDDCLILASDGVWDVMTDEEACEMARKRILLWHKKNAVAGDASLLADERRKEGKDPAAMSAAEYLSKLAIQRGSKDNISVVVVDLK
Variant	relative binding score
I33C	95.9%
T173A	101%
E127R	102%
Q167C	94.8%
F15W	101%
E152W	95.5%
R111S	78.8%
L29C	97.3%
E174H	88.2%
T160I	89.6%
A30R	105%
K54C	-1.04%
C25T	103%
R163K	103%
T119D	1.97%
G71H	74.8%
P37D	84.5%
T6Y	94.1%

Series 2
Target: CCND3, cyclin fold, Cln2 fusion (human)
Method: yeast growth competition, sequencing
Medium: yeast
Notes: weak parent motif
Relative to: not given
Reading: higher = stronger binding
Starting sequence: PKN2 docking peptide (human); VSAVRKLDFSDTM; partner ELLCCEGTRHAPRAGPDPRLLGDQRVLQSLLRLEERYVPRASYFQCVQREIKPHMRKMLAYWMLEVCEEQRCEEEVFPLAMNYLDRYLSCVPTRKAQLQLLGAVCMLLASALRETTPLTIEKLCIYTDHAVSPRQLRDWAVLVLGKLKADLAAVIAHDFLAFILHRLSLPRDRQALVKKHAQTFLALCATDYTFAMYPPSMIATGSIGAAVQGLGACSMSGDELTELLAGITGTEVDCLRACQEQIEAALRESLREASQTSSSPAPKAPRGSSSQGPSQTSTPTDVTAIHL
Variant	normalised enrichment score
VSALRKLDFSDTM [V4L]	0.317
VSAVRVLDFSDTM [K6V]	0.459
VSAVIKLDFSDTM [R5I]	0.138
VSAVRKLGFSDTM [D8G]	0.105
VSAVRKLDVSDTM [F9V]	0.0907
VSAVRGLDFSDTM [K6G]	0.207
VSAVRKSDFSDTM [L7S]	0.145
VSAVRKLDHSDTM [F9H]	0.111
VSCVRKLDFSDTM [A3C]	0.545
VSAVRKLDNSDTM [F9N]	-0.188
VSAVRKLDFHDTM [S10H]	0.695
VSAVRKLDFSSTM [D11S]	0.71
VSAVRKLEFSDTM [D8E]	0.751
VPAVRKLDFSDTM [S2P]	0.389
VSEVRKLDFSDTM [A3E]	-0.388
VSAVRKLDFSDCM [T12C]	1
VSAVRKLFFSDTM [D8F]	0.244
VSAVRKLYFSDTM [D8Y]	0.495

Series 3
Target: Histone acetyltransferase KAT6A, winged helix 1, GST fusion (KAT6A, Homo sapiens, UniProt Q92794, residues 1-85)
Method: protein binding microarray
Molecule type: double-stranded DNA, one strand shown
Medium: in vitro
Concentration: not given
Notes: 8-mer, flanks averaged, mean of 2 arrays, mostly near background
Relative to: not given
Reading: higher = stronger binding
Residues (chain): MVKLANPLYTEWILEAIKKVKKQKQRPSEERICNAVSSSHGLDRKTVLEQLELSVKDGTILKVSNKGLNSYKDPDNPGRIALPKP
Sequence	E-score
GCCCCATA	-0.113
AGTCCAGC	-0.146
AACCAGTA	-0.0609
GATTAAAC	0.0411
TACAGCCA	-0.0737
CCAAAACA	-0.124
CTTTACTA	-0.0447
CCGCCAAA	0.126
GACCTCTC	-0.0831
CGCTCTAA	0.191
CCTCAACA	-0.0685
AGAGGCCC	-0.0658
CACACACG	0.155
CCCATTCA	-0.166
CTTGGAAC	-0.146
AATCTAAA	-0.199
AAACTGAA	-0.0892
ACACATCC	0.00502
GAAATGTA	-0.135
AGGGGATG	-0.298
CTCCCCAG	-0.148
TAATGTAA	-0.0396
GGCTAGAA	-0.000955

Series 4
Target: Interferon regulatory factor 5, full length, phosphomimetic (IRF5, Homo sapiens, UniProt Q13568-2, residues 1-514, K96S/S451D/S453D/S456D/S462D)
Method: protein-binding microarray
Molecule type: double-stranded DNA, one strand shown
Medium: in vitro
Concentration: 250 nM
Notes: 60-bp whole probe
Together with: salmon DNA 0.4 mg/ml
Relative to: random background probes
Reading: higher = stronger binding
Constant ends, left off below: GCCTAGCAC … GTCTTGATTCGCTTGACGCTGCTG
Sequence	log fluorescence [z-score]
TCCCCTCTAGGTTCTCTGAAAGTGCTA	-0.0123
TTTGGCTTTCCTTTATGTCCGTGCTAG	0.815
GACGATTTAGGGTTTCGAGACGTGCTA	1.26
TTAGGACTGCAACTGCTTTAGTGCTAG	-0.283
GACGGCTTCGGGTATCGGGACGTGCTA	0.482
GACGATTTCGCGTTTCGAGACGTGCTA	2.09
TGAGTTTTCCTTCATGTGCCGTGCTAG	0.559
TTAGGTTTTCTACTGCTTTAGTGCTAG	0.65
GACGGTTTCCTTATCCTAACGTGCTAG	0.883
TCACATCGTAAGCAAAAACTGTGCTAG	0.804
TTAGATTTCAGACTGGAATAGTGCTAG	0.341
TCTGGTTCCCATTCCAGGGTGTGCTAG	-0.207
TTAGGACTGCACACTGGGTTAGTGCTA	-0.533
TTAGGTTTCCGACTGCTTTAGTGCTAG	0.393
GACGGTATCGGTTTCGGCACGTGCTAG	8.77
TTAGGTCTCGGACTGGGATAGTGCTAG	-0.255
TTAGATTACGGGTATCGATTAGTGCTA	3.56
ATGAAGTTCTTTTTTTCAAGGTGCTAG	0.524
TTATGTTTCCTTTTCCTTTAGTGCTAG	2.33

Series 5
Target: NFE2L3, bZIP domain (human)
Method: DHFR protein complementation
Medium: yeast
Notes: single substitutions, most at no-binding floor
Relative to: wild-type JUN-FOS pair
Reading: higher = stronger binding
Starting sequence: JUN, bZIP domain (human); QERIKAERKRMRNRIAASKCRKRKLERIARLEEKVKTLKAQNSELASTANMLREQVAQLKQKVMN; partner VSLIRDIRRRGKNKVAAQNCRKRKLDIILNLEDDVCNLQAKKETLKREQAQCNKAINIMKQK
Variant	binding fitness [natural log]
I28Y	-1.42
E44K	-1.54
R53A	-1.57
Q41L	-1.47
R30T	-1.45
V56R	-1.51
E32V	-1.39
A29S	-1.53
K36T	-1.58
A46H	-1.54
K39W	-1.52
K34H	-1.54
K34V	-1.58
L52F	-1.47
S43G	-1.43
K34Q	-1.49
S47I	-1.43
A49K	-1.51
K34S	-1.47
L38N	-1.53
E44F	-1.48
K36F	-1.51
S43I	-1.3
Q41N	-1.52

Further values, each from its own experiment
Molecule	target	test	system	conditions	how to read	endpoint	result
PhoQ, residues 284 288 289 292 302 303 ASVMEA	PhoP, residues 12 14 15 18 19 NYFTV (Escherichia coli, UniProt P23836)	Sort-seq, measured: YFP reporter	E. coli	PhoQ-PhoP variant library, together with: 10 µM Mg2+	relative to: high Mg2+ state, higher = stronger signaling	fold induction	1.33

Some of these lines once more (series 4):
Sequence	log fluorescence [z-score]
GACGATTTAGGGTTTCGAGACGTGCTA	1.26
TTAGGACTGCAACTGCTTTAGTGCTAG	-0.283
GACGGCTTCGGGTATCGGGACGTGCTA	0.482
GACGATTTCGCGTTTCGAGACGTGCTA	2.09
TGAGTTTTCCTTCATGTGCCGTGCTAG	0.559
TTAGGTTTTCTACTGCTTTAGTGCTAG	0.65
GACGGTTTCCTTATCCTAACGTGCTAG	0.883
TCACATCGTAAGCAAAAACTGTGCTAG	0.804
TTAGATTTCAGACTGGAATAGTGCTAG	0.341
TCTGGTTCCCATTCCAGGGTGTGCTAG	-0.207
TTAGGACTGCACACTGGGTTAGTGCTA	-0.533
TTAGGTTTCCGACTGCTTTAGTGCTAG	0.393
GACGGTATCGGTTTCGGCACGTGCTAG	8.77
TTAGGTCTCGGACTGGGATAGTGCTAG	-0.255
TTAGATTACGGGTATCGATTAGTGCTA	3.56
ATGAAGTTCTTTTTTTCAAGGTGCTAG	0.524
